Assay results of several laboratories.
Every numbered part comes from another study and shows a few of its results, in no order.

Set 1 — technique: protein-binding microarray; form: double-stranded DNA, one strand shown; matrix: in vitro; tested at: 0.8 µM; notes: whole 60-bp probe, no competitor; reading: higher = stronger binding; shared flanks, not repeated: … GTCTTGATTCGCTTGACGCTGCTG
Target: Centromere-binding protein 1, full length, N-terminal tag (CBF1, Saccharomyces cerevisiae, UniProt P17106, residues 1-351)
Sequence of UniProt P17106 (whole entry, looked up): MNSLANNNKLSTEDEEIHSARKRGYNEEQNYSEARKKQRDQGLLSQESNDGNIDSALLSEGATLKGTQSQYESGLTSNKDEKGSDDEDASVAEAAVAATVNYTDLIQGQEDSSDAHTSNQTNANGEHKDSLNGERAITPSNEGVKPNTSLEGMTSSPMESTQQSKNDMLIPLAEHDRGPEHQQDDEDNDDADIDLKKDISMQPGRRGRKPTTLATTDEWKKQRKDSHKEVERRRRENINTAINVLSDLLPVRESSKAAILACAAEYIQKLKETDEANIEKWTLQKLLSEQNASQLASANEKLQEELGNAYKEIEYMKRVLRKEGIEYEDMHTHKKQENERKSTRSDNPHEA
Oligonucleotide	fluorescence intensity [a.u.]
GAAGGCGTTCATCATCACGCCAACATATTTCTTTAG	682
TGTACGAAGCTATCTCGCGTGCCTATAGTAGTTAGG	546
GAATTTCTACGTAACCACGTTGTTTACGTACTATAG	693
GAAAATGTAATTTCTCACGTGTTCCTTTAGCAGTAG	5050
CTAATGAACAGACACCACCATTGCTTCTTCTGCTTC	531
CTAAATAATGGAACTGACGTCGTCAATTACCGGTTC	480
GAACTGTTTGTCAGTAAGTCACGTAGACCTGTATAG	2110

Set 2 — technique: protein binding microarray; form: double-stranded DNA, one strand shown; matrix: in vitro; tested at: not given; reference: not given; reading: higher = stronger binding
Target: Histone acetyltransferase KAT6A, winged helix 2, GST fusion (KAT6A, Homo sapiens, UniProt Q92794, residues 85-181)
Notes: 8-mer, flanks averaged, mean of 2 arrays, mostly near background
Residues (chain): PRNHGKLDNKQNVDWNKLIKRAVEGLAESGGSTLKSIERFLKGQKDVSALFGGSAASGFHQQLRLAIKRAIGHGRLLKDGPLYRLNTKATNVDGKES
Oligonucleotide	E-score
GGGGTTAC	-0.274
GGCTGTAC	0.0066
CCGTTGAG	0.0469
CGGGCTTA	0.0215
AATTCCAT	-0.0207
GGAGCTAC	-0.0722
GTTTAGCA	0.188
ATGCGTCC	0.0254
GAAAGAAC	0.088
AATCGAAC	-0.035
CTAAAGAG	-0.0238
ATATTCAC	-0.0595

Set 3 — technique: protein-binding microarray; form: double-stranded DNA, one strand shown; matrix: in vitro; tested at: 940 nM top; notes: 60-bp whole probe; with: salmon DNA 0.4 mg/ml; reference: random background probes; reading: higher = stronger binding; shared flanks, not repeated: GCCTAGCAC … GTCTTGATTCGCTTGACGCTGCTG
Target: Interferon regulatory factor 5, full length, phosphomimetic (IRF5, Homo sapiens, UniProt Q13568-2, residues 1-514, S451D/S453D/S456D/S462D)
Oligonucleotide	fitted relative affinity [z-score]
GACGAACTGAGTATTGAGACGTGCTAG	-0.262
GACGATTTCGGATATCGAGACGTGCTA	0.622
GACGGTTTCGGTATCGGTACGTGCTAG	13.8
GACGATTTCGGGTATTGAGACGTGCTA	0.929
GACGGTATCGGGTTTCGCGACGTGCTA	4.92
TTTTTTTTTTTTGTATTTTTGTGCTAG	1.61
TCATGAACCATTTTGGTACTGTGCTAG	-0.292
GACGATTTCTGGTATCGAGACGTGCTA	2.54
TTAGGTCTCCTTAGCCTTTAGTGCTAG	-0.203

Single results of other studies
Molecule	target	test	system	setting	how to read	endpoint	result
PhoQ, residues 284 288 289 292 302 303 TASMAF	PhoP, residues 12 14 15 18 19 AQCLL (Escherichia coli, UniProt P23836)	Sort-seq, item: YFP reporter	E. coli	PhoQ-PhoP variant library, with: 10 µM Mg2+	reference: high Mg2+ state, higher = stronger signaling	fold induction	1.33

A few entries again (set 1):
Oligonucleotide	fluorescence intensity [a.u.]
TGTACGAAGCTATCTCGCGTGCCTATAGTAGTTAGG	546
GAATTTCTACGTAACCACGTTGTTTACGTACTATAG	693
GAAAATGTAATTTCTCACGTGTTCCTTTAGCAGTAG	5050
CTAATGAACAGACACCACCATTGCTTCTTCTGCTTC	531
